Measured values from different studies.
Values joined by “and” are separate records of one study, mostly repeats; a detail may differ. ± gives the spread as reported.

`C=C(NC(=O)c1csc(-c2nc3c(cc2O)-c2nc(cs2)C(=O)NC(C(C)O)C(=O)NC(=C(C)OC)c2nc(cs2)C(=O)NC2c4nc(cs4)C(=O)NC(COC(=O)c4c5c6c(cccc6n4O)COC(=O)C(OC4CC(C)(O)C(N(C)C)C(C)O4)C2OC5)c2nc-3cs2)n1)C(N)=O` (stereo not shown) — result for “lung bacterial load at ED50”: 5.34 log CFU/g (Streptococcus pneumoniae; ATCC 49619, immunocompromised mice, lung infection; tid dosing).
`Cn1ncc2cc(-c3cncc(Cl)c3N3CCC4(CCNC4=O)CC3)ccc21`: “log2 fold change” 1.4 (LS174T; gene expression, microarray, refers to: HDAC2 mRNA; concentration not given, 4 h; relative to: untreated cells).
`CC(C)(C)NCC(SS(=O)(=O)O)c1ccccc1` (stereo not shown): “mean male worms recovered” 12 worms per mouse (Schistosoma mansoni; infected Swiss Webster mice; 200 mg/kg single, dosed day 42, perfusion day 56).
`COC1OC(C)C(OS(=O)(=O)O)C(OC2OC(C)C(OS(=O)(=O)O)C(OS(=O)(=O)O)C2OS(=O)(=O)O)C1OS(=O)(=O)O` (stereo not shown) — result for “thrombin time prolongation”: 0.9 fold (human plasma; 128 µg/mL; relative to: control).
`C=CC(=O)N1[C@@H](c2ccc3c(c2)OCO3)c2[nH]c3ccccc3c2C[C@H]1C(=O)N1CCN(C)CC1`: “log2 fold change” -0.03 (CCNE1 WT-3xFLAG:CDK2 complex; co-IP TMT proteomics, refers to: ATAD3A; HEK-293T; 20 µM, 6 h; relative to: DMSO).
`C=CC(=O)Nc1cccc(Cn2ncc3cnc(Nc4cnn(CCOC)c4)nc32)c1`: “percent of control” 100% (MAP4K3 human; binding, KINOMEscan; 100 nM; lower = stronger binding).
`c1ccc(-c2n[nH]cc2-c2ccnc3ccccc23)nc1`: “log2 fold change” -0.15 (IRE1 (Candida albicans); kinase binding, MIB/MS competition; Candida albicans lysate; 10 µM; relative to: DMSO).
`COC1OC(C)C(OS(=O)(=O)O)C(OC2OC(C)C(OS(=O)(=O)O)C(OC3OC(C)C(OS(=O)(=O)O)C(OC4OC(C)C(OS(=O)(=O)O)C(OC5OC(C)C(OS(=O)(=O)O)C(OS(=O)(=O)O)C5O)C4O)C3O)C2O)C1O` (stereo not shown) gave a thrombin time of 9.8 ± 0.3 s (human plasma; 128 µg/mL).
Under “log2 fold change”, `COC1CN([C@H]2CC[C@H]([C@@]3(C)Oc4c(Cl)cc(C(=O)NCc5c(SC)cc(C)[nH]c5=O)c(C)c4O3)CC2)C1` is recorded as 1.7 (RNA-seq, refers to: BPGM; human, whole blood; dose not given, 24 h; relative to: pretreatment baseline).
For `COC1OC(C)C(OS(=O)(=O)O)C(OC2OC(C)C(OS(=O)(=O)O)C(OC3OC(C)C(OS(=O)(=O)O)C(OC4OC(C)C(OS(=O)(=O)O)C(OC5OC(C)C(OS(=O)(=O)O)C(OC6OC(C)C(OS(=O)(=O)O)C(OC7OC(C)C(OS(=O)(=O)O)C(OC8OC(C)C(OS(=O)(=O)O)C(OC9OC(C)C(OS(=O)(=O)O)C(OS(=O)(=O)O)C9O)C8O)C7O)C6O)C5O)C4O)C3O)C2O)C1O` (stereo not shown), “thrombin time prolongation” read 0.9 fold (human plasma; 128 µg/mL; relative to: control).
`COc1cc(O)ccc1CCC(c1ccc(O)cc1)c1cc2c(c(C)c1O)OC(c1ccc(O)cc1)CC2` (mixture of isomers) gave a PGE2 level of 26 ± 6 pg/mL (human blood; 10 µM, added: A23187).
The hypocotyl length of `Cc1cccc2c1N(C(=O)n1ccnn1)CC2` is reported as 5.69 mm (Arabidopsis thaliana; wild type; 100 µM, seedlings).
`COC1OC(C)C(OS(=O)(=O)O)C(OC2OC(C)C(OS(=O)(=O)O)C(OC3OC(C)C(OS(=O)(=O)O)C(OC4OC(C)C(OS(=O)(=O)O)C(OC5OC(C)C(OS(=O)(=O)O)C(OC6OC(C)C(OS(=O)(=O)O)C(OS(=O)(=O)O)C6O)C5O)C4O)C3O)C2O)C1O` (stereo not shown): “thrombin time prolongation” 1 fold (human plasma; 128 µg/mL; relative to: control).
`CCN(CC)CC(=O)Nc1cccc(-n2cc(-c3ccc4ccc(-c5cn(-c6cccc(NC(=O)CN(CC)CC)c6)nn5)cc4c3)nn2)c1` has a fold regulation of -1.71 (RCC4; PCR angiogenesis array, refers to: PTGS1; 5 x IC50, 4 h, normoxia; relative to: untreated).
With `COc1ccccc1-c1ccncc1C(=O)Nc1nnc(OCc2ccc(Cl)cc2)s1` the colony count was 68 and 78 and 70 and 80 and 79 (DLD-1 parental; 2 µM).
`CN1CCCNC(=O)c2cccc(c2)C(=O)NCCCN(C)CCCNc2cccc3c2C(=O)c2cccc(c2C3=O)NCCC1`: “log2 fold change” -1.46 (SAS; RNA-Seq, refers to: NAT14 mRNA; 1 µM, 6 h; relative to: untreated cells).
With `COC1OC(C)C(OS(=O)(=O)O)C(OC2OC(C)C(OS(=O)(=O)O)C(OC3OC(C)C(OS(=O)(=O)O)C(OC4OC(C)C(OS(=O)(=O)O)C(OC5OC(C)C(OS(=O)(=O)O)C(OS(=O)(=O)O)C5OS(=O)(=O)O)C4OS(=O)(=O)O)C3OS(=O)(=O)O)C2OS(=O)(=O)O)C1OS(=O)(=O)O` (stereo not shown) the thrombin time was 10.1 ± 1.5 s (human plasma; 128 µg/mL).
`COc1cc2c(NC3CCN(C(C)C)CC3)cc(N3CCOCC3)nc2cc1OCCCN1CCCC1` — result for “normalised protein abundance”: -0.0581 and -0.0376 and -0.0276 and -0.0152 and -0.0411 and -0.0285 and -0.045 and -0.0255 (TMT quantitative proteomics, refers to: ALDOA; FAD AD model mice, hippocampus; dose not given).
`Cc1ncsc1-c1ccc(C(C)NC(=O)C2CC(O)CN2C(=O)C(NC(=O)CCCCCCCCCCN2CCCC(Nc3ncc(Cl)c(Nc4ccccc4S(=O)(=O)C(C)C)n3)C2)C(C)(C)C)cc1` (stereo not shown) — result for “log2 fold change”: -1.33 (22Rv1; RNA-seq, refers to: NACC2 mRNA; concentration not given; relative to: DMSO).
`Fc1ccc(Nc2nc(NC3CCCCC3)c3ccccc3n2)cc1F` has a pIC50 of 5.8 (β2AR/β1AR ECL2 chimera; β-arrestin2 recruitment, antagonist, BRET; added: isoprenaline 1 µM).
`Nc1ncc(-c2cc(-c3cnn(CC(F)(F)F)c3)ncc2F)nc1C(=O)NC1CNCC(F)C1` (stereo not shown) has a remaining binding of 100% (PLK4; KINOMEscan; 1 µM; relative to: DMSO control).
The IC50 of `CNS(=O)(=O)Nc1nccc(Cc2c(C)c3ccc(Oc4ncccc4F)cc3oc2=O)c1F` is reported as over 1 µM (SW1573; cell viability; 7 days).
